Measurements of several laboratories.
Each line is one published result; not all experiments were run side by side. Numbers after ± are the reported error.
Method: steady-state kinetics
B1: enzyme (Chlamydomonas reinhardtii, UniProt A0A2K3D6R4); chain MSETAGKPIECKAAIAWEAKKPLEVRTVTVAPPGPGEVRVQIKATALCQTDAYTLGGLDPEGRFPCILGHEAAGVVESVGEGVTSVKPGDHVIPCYQAYCGECKFCKHPESNLCVSVRAFTGKGVMKSDGKPRFTVDGKPIYHFMGTSTFSEYTVVHEQSVAKIDVNAPLDKVCLLGCGVSTGWGAVFNTAKVTAGSTVAVFGLGAVGLAVIEAAKRAGASRIIAVDIDPTKFPTAKEFGATDCINPKDHEKPIQQVIVEMTEWGCDYTFECIGNTAVMRAALECAHRGWGTSVIVGVAAAGQEISTRPFQLVTGRRWMGTAFGGYKSRVQVPDLVTDYMSGATLLDKYITHNMKFDQINEAFELLHAGECLRCVLTF
B2: asnB (Escherichia coli, UniProt P22106); chain CSIFGVFDIKTDAVELRKKALELSRLMRHRGPDWSGIYASDNAILAHERLSIVDVNAGAQPLYNQQKTHVLAVNGEIYNHQALRAEYGDRYQFQTGSDCEVILALYQEKGPEFLDDLQGMFAFALYDSEKDAYLIGRDHLGIIPLYMGYDEHGQLYVASEMKALVPVCRTIKEFPAGSYLWSQDGEIRSYYHRDWFDYDAVKDNVTDKNELRQALEDSVKSHLMSDVPYGVLLSGGLDSSIISAITKKYAARRVEDQERSEAWWPQLHSFAVGLPGSPDLKAAQEVANHLGTVHHEIHFTVQEGLDAIRDVIYHIETYDVTTIRASTPMYLMSRKIKAMGIKMVLSGEGSDEVFGGYLYFHKAPNAKELHEETVRKLLALHMYDCARANKAMSAWGVEARVPFLDKKFLDVAMRINPQDKMCGNGKMEKHILRECFEAYLPASVAWRQKEQFSDGVGYSWIDTLKEVAAQQVSDQQLETARFRFPYNTPTSKEAYLYREIFEELFPLPSAAECVPGGPSVACSSAKAIEWDEAFKKMDDPSGRAVGVHQSAYK
B3: YdjH (Escherichia coli, UniProt P77493); chain MDNLDVICIGAAIVDIPLQPVSKNIFDVDSYPLERIAMTTGGDAINEATIISRLGHRTALMSRIGKDAAGQFILDHCRKENIDIQSLKQDVSIDTSINVGLVTEDGERTFVTNRNGSLWKLNIDDVDFARFSQAKLLSLASIFNSPLLDGKALTEIFTQAKARQMIICADMIKPRLNETLDDICEALSYVDYLFPNFAEAKLLTGKETLDEIADCFLACGVKTVVIKTGKDGCFIKRGDMTMKVPAVAGITAIDTIGAGDNFASGFIAALLEGKNLRECARFANATAAISVLSVGATTGVKNRKLVEQLLEEYEG
B4: onr (Enterobacter cloacae, UniProt P71278); chain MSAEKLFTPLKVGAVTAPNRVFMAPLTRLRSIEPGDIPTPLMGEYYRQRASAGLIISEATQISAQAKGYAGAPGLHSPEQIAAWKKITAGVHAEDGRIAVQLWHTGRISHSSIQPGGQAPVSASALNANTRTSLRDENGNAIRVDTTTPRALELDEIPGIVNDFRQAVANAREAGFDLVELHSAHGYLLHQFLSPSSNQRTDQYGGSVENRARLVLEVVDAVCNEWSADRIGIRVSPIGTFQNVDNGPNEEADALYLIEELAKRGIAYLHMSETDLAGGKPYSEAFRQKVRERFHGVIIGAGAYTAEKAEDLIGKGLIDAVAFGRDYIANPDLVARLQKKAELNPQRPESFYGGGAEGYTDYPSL
B5: PPIP5K2 (Homo sapiens, UniProt O43314); chain MSEAPRFFVGPEDTEINPGNYRHFFHHADEDDEEEDDSPPERQIVVGICSMAKKSKSKPMKEILERISLFKYITVVVFEEEVILNEPVENWPLCDCLISFHSKGFPLDKAVAYAKLRNPFVINDLNMQYLIQDRREVYSILQAEGILLPRYAILNRDPNNPKECNLIEGEDHVEVNGEVFQKPFVEKPVSAEDHNVYIYYPTSAGGGSQRLFRKIGSRSSVYSPESNVRKTGSYIYEEFMPTDGTDVKVYTVGPDYAHAEARKSPALDGKVERDSEGKEVRYPVILNAREKLIAWKVCLAFKQTVCGFDLLRANGQSYVCDVNGFSFVKNSMKYYDDCAKILGNIVMRELAPQFHIPWSIPLEAED
B6: enzyme (Neurospora crassa, UniProt Q7SCU7); chain ATSSVSKIVSQPRSLAEVCAALRAKLLAFLALHSNDETVQGTQRRARDAMEVIEEALRRYRPEELSLSYNGGKDCLVLLILILACWPASVQPPSSSSSSSSSSISNSSKQTLPRLQCIYIAPPDPFQEVEDFVATTTEEYHLDLARYALPMRQALDSYLDEKPHVKAVFMGTRRTDPHSEFLNNFTPTDKGWPQFMRINPVLDWHYVEIWTFIRQLDIPFCSLYSQGFSSLGGTKDTRPNPALALNAEGNKFRPAYELTRDDEERLGRDR
B7: protein (Planktothrix agardhii, UniProt F5B6Z0); chain MIVNVIQKDRLKEQKLQFIRNHQQAFDVEPIYPLPLFEDFVTSIEGDCSLEASCKIESDKLIASRFLLFFEDKTQEWQKYLHQSLTFFGLVENRVGVKINYSLLQQFLGSSFDFSKVTVLSAGIDLRNNLAESSLKMHIRIKDYPEKLDKAFALSDGAADGNYLKDFVNLIGFDFYFNGKSEIEIYAEVQEDDFFKPEINNLVWQHFPKTALQPLKASSLFFTGLSKANNNPVLYYHLKNRQDLTNYFKLNDTAQRVHSFYQHQDILPYMWVGTAQKELEKTRIENIRLYYYKSFKMESN
B8: LYS1 C205S/K99M (Saccharomyces cerevisiae, UniProt P38998); chain MAAVTLHLRAETKPLEARAALTPTTVKKLIAKGFKIYVEDSPQSTFNINEYRQAGAIIVPAGSWKTAPRDRIIIGLKEMPETDTFPLVHEHIQFAHCYMDQAGWQNVLMRFIKGHGTLYDLEFLENDQGRRVAAFGFYAGFAGAALGVRDWAFKQTHSDDEDLPAVSPYPNEKALVKDVTKDYKEALATGARKPTVLIIGALGRSGSGAIDLLHKVGIPDANILKWDIKETSRGGPFDEIPQADIFINCIYLSKPIAPFTNMEKLNNPNRRLRTVVDVSADTTNPHNPIPIYTVATVFNKPTVLVPTTAGPKLSVISIDHLPSLLPREASEFFSHDLLPSLELLPQRKTAPVWVRAKKLFDRHCARVKRSSRL
B9: moaA (Staphylococcus aureus, UniProt P69848); chain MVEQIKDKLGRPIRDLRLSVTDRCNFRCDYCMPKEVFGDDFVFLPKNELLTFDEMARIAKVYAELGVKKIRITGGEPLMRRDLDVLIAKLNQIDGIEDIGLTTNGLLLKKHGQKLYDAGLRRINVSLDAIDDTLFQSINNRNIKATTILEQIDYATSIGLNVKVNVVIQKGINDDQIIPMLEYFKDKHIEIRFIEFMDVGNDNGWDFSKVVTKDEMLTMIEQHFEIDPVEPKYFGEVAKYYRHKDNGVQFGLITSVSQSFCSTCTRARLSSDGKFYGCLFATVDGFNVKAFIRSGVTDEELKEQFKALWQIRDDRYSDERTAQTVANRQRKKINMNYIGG
B10: UCK2 H117Y (Homo sapiens, UniProt Q9BZX2); chain MAGDSEQTLQNHQQPNGGEPFLIGVSGGTASGKSSVCAKIVQLLGQNEVDYRQKQVVILSQDSFYRVLTSEQKAKALKGQFNFDHPDAFDNELILKTLKEITEGKTVQIPVYDFVSYSRKEETVTVYPADVVLFEGILAFYSQEVRDLFQMKLFVDTDADTRLSRRVLRDISERGRDLEQILSQYITFVKPAFEEFCLPTKKYADVIIPRGADNLVAINLIVQHIQDILNGGPSKRQTNGCLNGYTPSRKRQASESSSRPH
B11: FNO G29L (Thermobifida fusca, UniProt Q47RA9); chain MIMIMASKSSPHDLPDVSGLSIAVLGGTLDQGRGLARRFAMAGHEVILGSRSAERAQAVAAELGEGLPVRGMDNAGAAEAGDVVIVAVPWDGHRALLESLKDVLAGKIVVDCVNPLGFDKRGAYALPVEEGSAAEQAAAILPDSRVVAAFHHVSAVLLLDPEVEKVDLDVLVLGDDREATDVVRALAARIPGVRGVYGGRLRNAHQVEAFTANLISINRRYKAHAGIRITDI
B12: Mj-MAT W387F/Y233W (Methanocaldococcus jannaschii, UniProt Q58605); chain MRNIIVKKLDVEPIEERPTEIVERKGLGHPDSICDGIAESVSRALCKMYMEKFGTILHHNTDQVELVGGHAYPKFGGGVMVSPIYILLSGRATMEILDKEKNEVIKLPVGTTAVKAAKEYLKKVLRNVDVDKDVIIDCRIGQGSMDLVDVFERQKNEVPLANDTSFGVGYAPLSTTERLVLETERFLNSDELKNEIPAVGEDIKVMGLREGKKITLTIAMAVVDRYVKNIEEWKEVIEKVRKKVEDLAKKIADGYEVEIHINTADDYERESVYLTVTGTSAEMGDDGSVGRGNRVNGLITPFRPMSMEAASGKNPVNHVGKIYNILANLIANDIAKLEGVKECYVRILSQIGKPINEPKALDIEIITEDSYDIKDIEPKAKEIANKFLDNIMEVQKMIVEGKVTTF
Chain of UniProt P62694 (whole entry, looked up): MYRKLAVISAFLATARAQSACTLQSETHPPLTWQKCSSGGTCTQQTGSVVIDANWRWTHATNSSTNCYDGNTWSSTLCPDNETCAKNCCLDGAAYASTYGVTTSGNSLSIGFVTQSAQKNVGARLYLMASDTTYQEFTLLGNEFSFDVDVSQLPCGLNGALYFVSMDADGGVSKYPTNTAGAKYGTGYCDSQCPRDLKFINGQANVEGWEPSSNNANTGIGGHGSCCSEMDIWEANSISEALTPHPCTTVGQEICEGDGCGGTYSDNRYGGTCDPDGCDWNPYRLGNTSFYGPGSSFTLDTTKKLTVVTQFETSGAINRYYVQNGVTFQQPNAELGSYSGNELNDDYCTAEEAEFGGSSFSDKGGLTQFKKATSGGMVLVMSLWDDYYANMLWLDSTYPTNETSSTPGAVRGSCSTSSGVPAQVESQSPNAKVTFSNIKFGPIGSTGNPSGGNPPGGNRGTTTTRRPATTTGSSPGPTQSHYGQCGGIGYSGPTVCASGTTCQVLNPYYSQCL
Chain of UniProt P14780 (whole entry, looked up): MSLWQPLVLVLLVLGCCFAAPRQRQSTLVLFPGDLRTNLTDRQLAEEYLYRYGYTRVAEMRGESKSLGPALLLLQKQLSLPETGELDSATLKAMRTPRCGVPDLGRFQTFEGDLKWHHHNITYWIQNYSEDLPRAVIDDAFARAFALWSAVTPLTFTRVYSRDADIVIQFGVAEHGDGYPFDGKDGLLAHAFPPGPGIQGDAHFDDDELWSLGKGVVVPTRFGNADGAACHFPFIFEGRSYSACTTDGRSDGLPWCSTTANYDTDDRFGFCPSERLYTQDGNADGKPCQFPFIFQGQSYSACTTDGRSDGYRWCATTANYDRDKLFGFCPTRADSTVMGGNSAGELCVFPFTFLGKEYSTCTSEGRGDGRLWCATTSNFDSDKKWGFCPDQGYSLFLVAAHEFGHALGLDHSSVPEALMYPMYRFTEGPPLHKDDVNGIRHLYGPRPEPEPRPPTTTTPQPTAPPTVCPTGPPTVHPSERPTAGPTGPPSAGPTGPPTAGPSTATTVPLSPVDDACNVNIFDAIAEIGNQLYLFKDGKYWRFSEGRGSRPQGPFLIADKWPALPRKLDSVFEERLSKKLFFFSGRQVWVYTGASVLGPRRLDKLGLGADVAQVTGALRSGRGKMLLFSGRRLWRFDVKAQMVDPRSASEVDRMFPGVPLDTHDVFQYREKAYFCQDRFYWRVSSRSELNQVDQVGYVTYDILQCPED
Chain of UniProt P19337 (whole entry, looked up): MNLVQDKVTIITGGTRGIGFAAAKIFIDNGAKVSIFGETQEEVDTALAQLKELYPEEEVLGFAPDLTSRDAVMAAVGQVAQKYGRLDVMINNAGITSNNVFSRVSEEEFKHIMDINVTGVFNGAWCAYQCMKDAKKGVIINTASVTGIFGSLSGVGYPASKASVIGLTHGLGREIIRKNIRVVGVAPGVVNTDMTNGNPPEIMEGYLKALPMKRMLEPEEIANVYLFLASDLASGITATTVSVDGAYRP
Chain of UniProt Q29437 (whole entry, looked up): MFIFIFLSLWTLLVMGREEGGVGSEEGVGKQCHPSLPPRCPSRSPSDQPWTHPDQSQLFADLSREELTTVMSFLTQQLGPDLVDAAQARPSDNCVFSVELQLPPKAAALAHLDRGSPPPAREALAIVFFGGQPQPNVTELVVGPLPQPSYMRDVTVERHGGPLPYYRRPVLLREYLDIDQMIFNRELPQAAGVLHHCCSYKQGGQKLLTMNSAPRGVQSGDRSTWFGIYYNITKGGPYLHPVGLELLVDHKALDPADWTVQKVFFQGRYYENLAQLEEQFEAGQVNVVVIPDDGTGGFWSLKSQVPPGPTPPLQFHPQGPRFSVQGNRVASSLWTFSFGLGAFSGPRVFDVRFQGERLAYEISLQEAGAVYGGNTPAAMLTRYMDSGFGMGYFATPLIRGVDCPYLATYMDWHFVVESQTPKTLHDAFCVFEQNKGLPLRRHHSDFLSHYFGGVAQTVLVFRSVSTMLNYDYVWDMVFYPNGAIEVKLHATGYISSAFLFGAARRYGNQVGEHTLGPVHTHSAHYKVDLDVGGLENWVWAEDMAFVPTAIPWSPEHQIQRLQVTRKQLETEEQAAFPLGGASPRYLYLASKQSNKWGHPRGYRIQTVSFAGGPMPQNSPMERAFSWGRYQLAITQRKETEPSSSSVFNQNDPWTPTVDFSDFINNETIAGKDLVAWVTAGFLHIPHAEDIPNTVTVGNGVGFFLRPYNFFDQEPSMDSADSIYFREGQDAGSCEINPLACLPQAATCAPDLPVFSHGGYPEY
Chain of UniProt Q04JB0 (whole entry, looked up): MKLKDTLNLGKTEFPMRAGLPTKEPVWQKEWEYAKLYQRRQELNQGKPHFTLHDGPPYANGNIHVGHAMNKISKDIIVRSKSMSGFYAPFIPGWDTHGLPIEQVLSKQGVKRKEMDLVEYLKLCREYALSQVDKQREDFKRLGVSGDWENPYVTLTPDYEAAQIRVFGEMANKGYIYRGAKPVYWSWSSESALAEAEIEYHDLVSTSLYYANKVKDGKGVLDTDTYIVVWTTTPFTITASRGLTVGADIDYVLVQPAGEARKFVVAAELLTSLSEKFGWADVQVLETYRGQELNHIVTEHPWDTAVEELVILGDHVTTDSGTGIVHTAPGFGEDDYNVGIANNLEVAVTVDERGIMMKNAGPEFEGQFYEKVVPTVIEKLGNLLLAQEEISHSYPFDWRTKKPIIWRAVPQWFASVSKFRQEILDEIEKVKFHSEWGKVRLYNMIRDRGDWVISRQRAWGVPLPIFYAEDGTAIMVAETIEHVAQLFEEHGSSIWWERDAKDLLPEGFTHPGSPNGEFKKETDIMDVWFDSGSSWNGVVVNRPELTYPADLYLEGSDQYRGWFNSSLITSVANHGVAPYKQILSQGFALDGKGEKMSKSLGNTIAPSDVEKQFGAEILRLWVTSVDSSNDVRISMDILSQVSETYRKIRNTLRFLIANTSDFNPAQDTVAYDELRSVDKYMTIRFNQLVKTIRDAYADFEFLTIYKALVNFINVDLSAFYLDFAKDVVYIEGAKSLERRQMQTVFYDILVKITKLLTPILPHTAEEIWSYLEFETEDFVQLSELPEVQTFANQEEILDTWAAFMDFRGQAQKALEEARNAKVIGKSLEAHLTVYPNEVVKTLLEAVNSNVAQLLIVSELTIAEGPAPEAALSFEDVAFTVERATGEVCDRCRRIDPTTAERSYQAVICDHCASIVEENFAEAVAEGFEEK

Substance	substrate	pH	temperature	setting	added	kcat
B1 (enzyme)	NC(=O)C1=CN([C@@H]2O[C@H](COP(=O)(O)OP(=O)(O)OC[C@H]3O[C@@H](n4cnc5c(N)ncnc54)[C@H](O)[C@@H]3O)[C@@H](O)[C@H]2O)C=CC1	pH 7.9		apparent, cofactor varied		27 ± 0.6 s⁻¹
B2 (asnB)	NC(=O)CC[C@H](N)C(=O)O	pH 8	37 °C	100 mM NaCl, glutaminase site	MgCl2; no ATP	6.2 ± 0.2 s⁻¹
B3 (YdjH)	O=C(O)[C@H](O)[C@@H](O)[C@H](O)[C@H](O)CO	pH 7.4	30 °C	KCl 100 mM	ATP 2.0 mM, MgCl2 5.0 mM	0.025 ± 0.001 s⁻¹
B4 (onr)	CC(C)=CCC/C(C)=C/C=O	pH 7	25 °C	apparent, anaerobic	NADPH 100 µM	0.24 ± 0.004 s⁻¹
B5 (PPIP5K2)	Nc1ncnc2c1ncn2[C@@H]1O[C@H](COP(=O)(O)OP(=O)(O)OP(=O)(O)O)[C@@H](O)[C@H]1O					0.13 ± 0.01 s⁻¹
BaiA2 (Clostridium scindens, UniProt P19337)	C[C@H](CCC(=O)SCCNC(=O)CCNC(=O)[C@H](O)C(C)(C)COP(=O)(O)OP(=O)(O)OC[C@H]1O[C@@H](n2cnc3c(N)ncnc32)[C@H](O)[C@@H]1OP(=O)(O)O)[C@H]1CC[C@H]2[C@@H]3CC[C@@H]4CC(=O)CC[C@]4(C)[C@H]3C[C@H](O)[C@]12C	pH 8.7	37 °C		NADH	0.152 s⁻¹
Plasma amine oxidase (Bos taurus, UniProt Q29437)	COc1ccc2cc(CN)ccc2c1	pH 7.2	30 °C			1.12 ± 0.04 s⁻¹
B6 (enzyme)	Nc1ncnc2c1ncn2[C@@H]1O[C@H](COP(=O)(O)OP(=O)(O)OP(=O)(O)O)[C@@H](O)[C@H]1O	pH 7.5	37 °C			0.69 s⁻¹
ileS (Streptococcus pneumoniae, UniProt Q04JB0)	CC[C@H](C)[C@H](N)C(=O)O	pH 7.2	37 °C		ATP 2 mM	0.001 ± 0.000333 s⁻¹
B7 (protein)	CC(C)=CCOP(=O)(O)OP(=O)(O)O				tri-Tyr peptide acceptor	0.122 ± 0.00233 s⁻¹
B8 (LYS1 C205S/K99M)	NC(=O)C1=CN([C@@H]2O[C@H](COP(=O)(O)OP(=O)(O)OC[C@H]3O[C@@H](n4cnc5c(N)ncnc54)[C@H](O)[C@@H]3O)[C@@H](O)[C@H]2O)C=CC1	pH 7.2	25 °C		Lys and α-Kg	68 ± 4 s⁻¹
B9 (moaA)	Nc1nc2c(ncn2[C@@H]2O[C@H](COP(=O)(O)OP(=O)(O)OP(=O)(O)O)[C@@H](O)[C@H]2O)c(=O)[nH]1	pH 7.6	25 °C		SAM, dithionite, MgCl2 1 mM	0.00075 ± 5e-05 s⁻¹
cbh1 (Trichoderma reesei, UniProt P62694)	[H][C@@]1(O[C@H]2[C@H](O)[C@@H](O)[C@H](Oc3ccc([N+](=O)[O-])cc3)O[C@@H]2CO)O[C@H](CO)[C@H](O)[C@H](O)[C@H]1O	pH 5	25 °C	apparent		0.087 ± 0.002 s⁻¹
B10 (UCK2 H117Y)	Nc1ccn([C@@H]2O[C@H](CO)[C@@H](O)[C@H]2O)c(=O)n1	pH 7.2	25 °C	KCl 100 mM	ATP 100–200 µM	6.4 ± 0.7 s⁻¹
MMP9 (Homo sapiens, UniProt P14780)	CC(=O)N[C@@H](CCC(N)=O)C(=O)N1CCC[C@H]1C(=O)N[C@@H](CCC(N)=O)C(=O)NCC(=O)N[C@@H](CC(C)C)C(=O)N[C@@H](C)C(=O)N[C@@H](CCCCN)C(N)=O					25.4 s⁻¹
B11 (FNO G29L)	CCC[n+]1cccc(C(N)=O)c1	pH 8	25 °C		F420H2 40 µM	0.006 ± 0.00095 s⁻¹
B12 (Mj-MAT W387F/Y233W)	CSCC[C@H](N)C(=O)O		55 °C		ATP 2.5 mM, methionine 0.05-1 mM	7.24 ± 0.08 s⁻¹

Repeated from above:
Substance	substrate	pH	temperature	setting	added	kcat
B1 (enzyme)	NC(=O)C1=CN([C@@H]2O[C@H](COP(=O)(O)OP(=O)(O)OC[C@H]3O[C@@H](n4cnc5c(N)ncnc54)[C@H](O)[C@@H]3O)[C@@H](O)[C@H]2O)C=CC1	pH 7.9		apparent, cofactor varied		27 ± 0.6 s⁻¹
MMP9 (Homo sapiens, UniProt P14780)	CC(=O)N[C@@H](CCC(N)=O)C(=O)N1CCC[C@H]1C(=O)N[C@@H](CCC(N)=O)C(=O)NCC(=O)N[C@@H](CC(C)C)C(=O)N[C@@H](C)C(=O)N[C@@H](CCCCN)C(N)=O					25.4 s⁻¹
B8 (LYS1 C205S/K99M)	NC(=O)C1=CN([C@@H]2O[C@H](COP(=O)(O)OP(=O)(O)OC[C@H]3O[C@@H](n4cnc5c(N)ncnc54)[C@H](O)[C@@H]3O)[C@@H](O)[C@H]2O)C=CC1	pH 7.2	25 °C		Lys and α-Kg	68 ± 4 s⁻¹
